{"data": "Assay results collected from several papers", "note": "A part holds a random share of what one study measured. Values joined by “and” are separate records of one study, mostly repeats; a detail may differ."}
{"data": "Block 1", "target": "Histone acetyltransferase KAT6A, both winged helices, GST fusion (KAT6A, Homo sapiens, UniProt Q92794, residues 1-181)", "technique": "protein binding microarray", "form": "double-stranded DNA, one strand shown", "sample": "in vitro", "tested at": "not given", "notes": "8-mer, flanks averaged, mean of 2 arrays, mostly near background", "relative to": "not given", "reading": "higher = stronger binding", "Residues (chain)": "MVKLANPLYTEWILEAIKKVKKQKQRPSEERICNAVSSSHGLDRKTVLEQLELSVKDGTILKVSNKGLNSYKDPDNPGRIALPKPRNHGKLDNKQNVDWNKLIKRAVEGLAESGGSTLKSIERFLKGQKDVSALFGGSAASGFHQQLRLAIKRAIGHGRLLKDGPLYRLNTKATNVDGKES"}
{"Sequence": "GGGTGATA", "E-score": 0.0526}
{"Sequence": "GGGCACTA", "E-score": 0.0471}
{"Sequence": "CGGTAAAA", "E-score": 0.162}
{"Sequence": "CCGATCAC", "E-score": 0.122}
{"Sequence": "ACCAAGTG", "E-score": -0.185}
{"Sequence": "CCGCGTAA", "E-score": 0.322}
{"data": "Block 2", "target": "Protein C-ets-1 (ETS1, Homo sapiens, UniProt P14921, residues 1-441, full length assumed)", "technique": "protein-binding microarray", "form": "double-stranded DNA, one strand shown", "sample": "in vitro", "tested at": "not given", "notes": "k-mer, scored over probes, only values ≥0.25", "reading": "higher = stronger binding", "Target sequence (chain)": "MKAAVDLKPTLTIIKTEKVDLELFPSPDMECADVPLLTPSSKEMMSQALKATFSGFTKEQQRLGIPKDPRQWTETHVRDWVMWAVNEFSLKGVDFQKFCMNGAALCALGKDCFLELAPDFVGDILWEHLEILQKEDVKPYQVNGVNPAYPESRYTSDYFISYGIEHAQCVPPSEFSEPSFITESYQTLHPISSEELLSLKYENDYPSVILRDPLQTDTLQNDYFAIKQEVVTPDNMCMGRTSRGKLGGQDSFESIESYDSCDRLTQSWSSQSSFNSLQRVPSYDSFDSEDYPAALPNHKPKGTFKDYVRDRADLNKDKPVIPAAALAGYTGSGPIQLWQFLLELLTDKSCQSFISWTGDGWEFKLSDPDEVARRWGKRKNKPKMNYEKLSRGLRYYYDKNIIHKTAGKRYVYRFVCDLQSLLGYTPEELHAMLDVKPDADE"}
{"Sequence": "ATGAGGAA", "E-score": 0.295}
{"Sequence": "ACTTCCTA", "E-score": 0.442}
{"Sequence": "AATCGGAA", "E-score": 0.362}
{"Sequence": "TGGGGGAA", "E-score": 0.263}
{"Sequence": "CCCATCCC", "E-score": 0.275}
{"data": "Block 3", "target": "Sal-like protein 4, full length isoform A (SALL4, Homo sapiens, UniProt Q9UJQ4, residues 1-1053)", "technique": "universal PBM", "form": "double-stranded DNA, one strand shown", "sample": "in vitro", "tested at": "600 nM", "notes": "8-mer, flanks averaged, mean of replicates", "reading": "higher = stronger binding", "sequence of UniProt Q9UJQ4 (whole entry, looked up)": "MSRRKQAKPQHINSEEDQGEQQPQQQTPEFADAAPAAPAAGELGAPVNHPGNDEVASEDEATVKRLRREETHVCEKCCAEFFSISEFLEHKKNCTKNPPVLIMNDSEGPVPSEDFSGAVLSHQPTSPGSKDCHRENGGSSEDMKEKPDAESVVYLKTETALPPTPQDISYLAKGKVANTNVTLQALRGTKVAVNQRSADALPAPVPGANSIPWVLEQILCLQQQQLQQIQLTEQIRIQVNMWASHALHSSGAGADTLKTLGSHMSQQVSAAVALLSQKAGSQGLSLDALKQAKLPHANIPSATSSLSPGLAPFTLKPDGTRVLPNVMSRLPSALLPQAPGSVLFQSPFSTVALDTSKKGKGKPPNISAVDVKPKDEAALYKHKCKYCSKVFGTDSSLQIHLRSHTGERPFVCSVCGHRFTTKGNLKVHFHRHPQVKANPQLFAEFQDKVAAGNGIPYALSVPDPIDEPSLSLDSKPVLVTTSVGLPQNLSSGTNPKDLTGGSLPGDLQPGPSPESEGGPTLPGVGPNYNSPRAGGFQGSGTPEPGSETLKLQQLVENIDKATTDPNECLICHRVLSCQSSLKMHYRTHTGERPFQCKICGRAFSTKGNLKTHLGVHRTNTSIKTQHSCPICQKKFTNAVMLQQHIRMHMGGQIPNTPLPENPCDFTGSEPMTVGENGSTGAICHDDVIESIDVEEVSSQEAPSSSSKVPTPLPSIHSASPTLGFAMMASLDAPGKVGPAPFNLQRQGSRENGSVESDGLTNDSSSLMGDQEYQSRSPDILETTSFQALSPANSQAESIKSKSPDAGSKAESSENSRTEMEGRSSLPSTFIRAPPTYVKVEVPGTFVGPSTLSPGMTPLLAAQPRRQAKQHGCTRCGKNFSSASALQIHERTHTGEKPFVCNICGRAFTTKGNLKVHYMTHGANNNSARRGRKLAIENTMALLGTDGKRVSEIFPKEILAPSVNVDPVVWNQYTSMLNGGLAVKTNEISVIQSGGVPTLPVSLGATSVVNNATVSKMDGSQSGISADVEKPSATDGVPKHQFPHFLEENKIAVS"}
{"Sequence": "CGCCCCCA", "E-score": -0.27}
{"Sequence": "AGGCTAGC", "E-score": -0.0768}
{"Sequence": "CAGGTTCG", "E-score": -0.0822}
{"Sequence": "CACGTATG", "E-score": 0.0793}
{"Sequence": "ATAATGGC", "E-score": 0.101}
{"Sequence": "ATCCGTAC", "E-score": 0.128}
{"Sequence": "CTTCACCC", "E-score": -0.0177}
{"data": "Mixed results"}
{"Molecule": "PhoQ, residues 284 288 289 292 302 303 AAQSYM", "target": "PhoP, residues 12 14 15 18 19 LWHCS (Escherichia coli, UniProt P23836)", "assay": "Sort-seq, refers to: YFP reporter", "test system": "E. coli", "setting": "PhoQ-PhoP variant library, added: 10 µM Mg2+", "scale": "relative to: high Mg2+ state, higher = stronger signaling", "measurement": "fold induction", "result": "13.2 and 19.6"}
{"note": "Some of these lines once more (block 1):"}
{"Sequence": "GGGTGATA", "E-score": 0.0526}
{"Sequence": "GGGCACTA", "E-score": 0.0471}
{"Sequence": "CGGTAAAA", "E-score": 0.162}
